Results of several laboratories.
Numbered parts are unrelated; each lists some results of a single study. Several values in a cell are separate wells, animals, samples, runs or records.
UniProt Q99640, sequence (whole entry, looked up): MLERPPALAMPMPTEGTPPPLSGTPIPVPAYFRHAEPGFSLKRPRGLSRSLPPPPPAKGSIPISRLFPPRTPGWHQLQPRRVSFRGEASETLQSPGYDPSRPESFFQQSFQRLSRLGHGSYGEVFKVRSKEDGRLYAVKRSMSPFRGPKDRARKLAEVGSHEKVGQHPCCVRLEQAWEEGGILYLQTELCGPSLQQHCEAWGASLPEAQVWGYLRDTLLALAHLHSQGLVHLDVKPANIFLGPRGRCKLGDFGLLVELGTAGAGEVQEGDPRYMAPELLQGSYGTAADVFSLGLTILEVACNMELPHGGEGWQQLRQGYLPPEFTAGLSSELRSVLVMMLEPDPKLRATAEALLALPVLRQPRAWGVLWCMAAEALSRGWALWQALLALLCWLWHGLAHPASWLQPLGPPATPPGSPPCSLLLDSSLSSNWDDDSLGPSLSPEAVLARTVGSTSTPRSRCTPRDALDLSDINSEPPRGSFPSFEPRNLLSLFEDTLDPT

Set 1
SMILES: Cc1ncsc1-c1ccc(C(CO)NC(=O)C2CC(O)CN2C(=O)C(C(C)C)n2cc(-c3ccc(COc4c(-c5c(C)c(F)cc6[nH]ncc56)c(C5CC5)cc5c(N6CC7CC6CN7)nc(OC6CCOCC6)nc45)cc3)nn2)cc1 (centres unmarked)
Endpoint: tumour volume
mouse, lung LXFA sample A PDX; 30 mg/kg twice weekly, day 15: 63.4 mm3 and 49.9 mm3 and 130 mm3 and 77.9 mm3 and 5.3 mm3 and 116 mm3 and 35.6 mm3 and 83.8 mm3
ASPC1 xenograft, mouse; 30 mg/kg twice weekly, day 11: 172 mm3 and 113 mm3 and 150 mm3 and 114 mm3 and 104 mm3
mouse, lung LXFA sample B PDX; 30 mg/kg twice weekly, day 14: 42 mm3 and 67.8 mm3 and 26.5 mm3 and 129 mm3 and 133 mm3 and 49.6 mm3 and 52.7 mm3 and 98.1 mm3
PK-1 xenograft, mouse; 30 mg/kg twice weekly, day 10: 135 mm3 and 142 mm3 and 160 mm3 and 165 mm3 and 95.7 mm3
HPAC xenograft, mouse; 30 mg/kg once weekly, day 0: 226 mm3 and 214 mm3 and 258 mm3 and 204 mm3 and 239 mm3
GP5d xenograft, mouse; 30 mg/kg once weekly, day 7: 178 mm3 and 223 mm3 and 167 mm3 and 168 mm3 and 149 mm3
ASPC1 xenograft, mouse; 30 mg/kg once weekly, day 7: 136 mm3 and 203 mm3 and 180 mm3 and 141 mm3 and 223 mm3
mouse, PK-59 xenograft; subcutaneous, 30 mg/kg once daily, day 1: 100 mm3 and 118 mm3 and 134 mm3 and 123 mm3 and 103 mm3
mouse, PK-59 xenograft; 1 mg/kg, day 0: 269 mm3 and 294 mm3 and 334 mm3 and 252 mm3 and 318 mm3
mouse, lung LXFA sample A PDX; 10 mg/kg twice weekly, day 22: 138 mm3 and 434 mm3 and 223 mm3 and 312 mm3 and 105 mm3 and 318 mm3 and 111 mm3 and 164 mm3

Set 2
Compound: C[C@@H]1CN(c2ccc(-c3cc(C(=O)NCCOCCOCCOCCOCCNC(=O)Cn4cc(-c5[nH]cc(C(=O)N[C@@H](CC(N)=O)c6ccc(F)c(Cl)c6)c5-c5ccc(Cl)cc5F)cn4)ccc3F)cc2NC(=O)c2c[nH]c(=O)cc2C(F)(F)F)C[C@H](C)N1C
Effect on: thermal unfolding
Method: differential scanning fluorimetry
Tested at: 5.5 µM
Direction: higher = more unfolded
Endpoint: SYPRO Orange fluorescence
DCAF1: DDB1- and CUL4-associated factor 1 (DCAF1, Homo sapiens, UniProt Q9Y4B6)
UniProt Q9Y4B6, sequence (whole entry, looked up): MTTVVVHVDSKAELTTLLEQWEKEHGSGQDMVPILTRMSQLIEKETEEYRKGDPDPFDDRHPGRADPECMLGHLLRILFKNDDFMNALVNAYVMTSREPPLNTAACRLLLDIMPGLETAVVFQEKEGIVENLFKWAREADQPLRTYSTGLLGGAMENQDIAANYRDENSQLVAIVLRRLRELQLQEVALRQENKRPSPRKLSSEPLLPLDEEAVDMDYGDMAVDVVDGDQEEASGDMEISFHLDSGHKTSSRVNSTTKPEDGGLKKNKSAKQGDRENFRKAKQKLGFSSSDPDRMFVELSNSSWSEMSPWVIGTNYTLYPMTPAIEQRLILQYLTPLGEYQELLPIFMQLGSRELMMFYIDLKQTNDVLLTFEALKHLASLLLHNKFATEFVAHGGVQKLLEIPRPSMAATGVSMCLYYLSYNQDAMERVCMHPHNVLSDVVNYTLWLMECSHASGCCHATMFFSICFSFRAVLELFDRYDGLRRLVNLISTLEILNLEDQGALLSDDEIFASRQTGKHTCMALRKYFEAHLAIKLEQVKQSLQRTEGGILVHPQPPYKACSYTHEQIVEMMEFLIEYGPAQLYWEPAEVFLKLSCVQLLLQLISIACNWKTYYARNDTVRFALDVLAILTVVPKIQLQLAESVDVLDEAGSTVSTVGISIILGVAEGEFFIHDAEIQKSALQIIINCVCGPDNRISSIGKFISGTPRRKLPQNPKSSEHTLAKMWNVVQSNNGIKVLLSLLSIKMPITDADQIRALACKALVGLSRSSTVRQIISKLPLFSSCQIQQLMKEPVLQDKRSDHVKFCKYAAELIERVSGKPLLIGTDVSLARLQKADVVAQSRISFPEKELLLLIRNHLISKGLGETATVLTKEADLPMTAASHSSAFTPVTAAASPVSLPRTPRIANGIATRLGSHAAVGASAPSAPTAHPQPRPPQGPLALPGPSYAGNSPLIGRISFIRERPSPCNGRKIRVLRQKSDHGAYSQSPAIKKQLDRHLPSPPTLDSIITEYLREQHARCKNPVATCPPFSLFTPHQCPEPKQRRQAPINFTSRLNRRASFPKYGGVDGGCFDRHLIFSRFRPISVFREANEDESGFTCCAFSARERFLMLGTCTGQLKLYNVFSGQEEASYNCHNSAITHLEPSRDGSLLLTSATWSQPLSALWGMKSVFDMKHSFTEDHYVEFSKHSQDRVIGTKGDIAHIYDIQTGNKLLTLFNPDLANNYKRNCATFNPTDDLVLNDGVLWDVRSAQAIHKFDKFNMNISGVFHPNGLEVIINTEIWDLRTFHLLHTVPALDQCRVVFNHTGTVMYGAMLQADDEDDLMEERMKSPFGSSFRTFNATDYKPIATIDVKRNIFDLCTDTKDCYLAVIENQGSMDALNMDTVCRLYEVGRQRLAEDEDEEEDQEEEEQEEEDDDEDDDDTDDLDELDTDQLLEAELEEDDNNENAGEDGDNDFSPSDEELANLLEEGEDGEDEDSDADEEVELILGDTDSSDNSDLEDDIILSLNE
WDR5: WD repeat-containing protein 5 (WDR5, Homo sapiens, UniProt P61964)
DCAF1; 76.21 °C: 48000 a.u.
DCAF1; 78.01 °C: 45900 a.u.
WDR5; 78.21 °C: 17900 a.u.
WDR5; 57.21 °C: 12400 a.u.
DCAF1; 53.41 °C: 17100 a.u.
WDR5; 42.6 °C: 14300 a.u.
WDR5; 82.61 °C: 32000 a.u.

Set 3
Structure (SMILES): CCN1/C(=C/C=C2\CCCC(/C=C/C3=[N+](CC)c4ccccc4C3(C)C)=C2NCCCCCCCCN2CCC(Nc3nc4ccccc4n3Cc3ccc(F)cc3)CC2)C(C)(C)c2ccccc21
Cell line: U-87 MG
Tested at: concentration not given
Baseline: DMSO
Endpoint: log2 fold change
measured: CREB3L1 mRNA: -1.52
measured: RPA1 mRNA: -0.877
measured: WASL mRNA: 1.01
measured: OAS3 mRNA: -1.75
measured: INPP5A mRNA: 1.6
measured: CDC25A mRNA: -1.72
measured: FAM50B mRNA: -0.998
measured: LBR mRNA: -1.45
measured: CD248 mRNA: -7.01
measured: UQCC3 mRNA: -0.816
measured: OGT mRNA: 1.2

Mixed results
Cc1ccc(O)c(C)c1-c1cnc2[nH]c(-c3cnc(N4CCC(CN5CCN(c6ccc(NC7CCC(=O)NC7=O)cc6F)CC5)CC4)nc3)cc2c1C#N (centres unmarked)
Cmax (Sprague-Dawley rat, male, plasma; oral, 10 mg/kg): 469 ng/mL

Cc1ccc(O)c(C)c1-c1cnc2[nH]c(-c3cnc(N4CCC5(CC4)CC(N4CCN(c6ccc(N[C@H]7CCC(=O)NC7=O)cc6F)CC4)CO5)nc3)cc2c1C#N (single isomer, unassigned)
tumour growth inhibition (mouse HCC1569 xenograft; oral, 40 mg/kg twice daily, 21 days): 35.1%

Cc1ccc(O)c(C)c1-c1cnc2[nH]c(-c3cnc(N4CCC5(CC4)CC(N4CCN(c6ccc(N[C@H]7CCC(=O)N(C)C7=O)cc6F)CC4)CO5)nc3)cc2c1C#N (single isomer, unassigned)
degradation (Membrane-associated tyrosine- and threonine-specific cdc2-inhibitory kinase (PKMYT1, Homo sapiens, UniProt Q99640); degrader, automated immunoblot (Jess); 0.46 nM, 24 h): 18.4%

Cc1ccc(O)c(C)c1-c1cnc2[nH]c(-c3cnc(N4CCC(CCN5CCN(c6ccc(NC7CCC(=O)NC7=O)cc6F)CC5)CC4)nc3)cc2c1C#N (centres unmarked)
plasma concentration (CD-1 mouse; oral, 60 mg/kg, 24 h): not detected
